Results collected from several papers.
Lines come from different studies, so protocols differ. ± gives the spread as reported. In brackets after ≈: the same amount, converted by molar mass.
Lethal factor: Lethal factor (Bacillus anthracis, UniProt P15917)
OPRD1: Delta-type opioid receptor (OPRD1, Homo sapiens, UniProt P41143)
OPG122: mRNA-decapping protein OPG122 (OPG122, Vaccinia virus, UniProt P04312)
rep papain-like protease: Replicase polyprotein 1ab, papain-like protease (rep, Severe acute respiratory syndrome coronavirus 2, UniProt P0DTD1)
Botulinum neurotoxin type A protease: Botulinum neurotoxin type A, protease (Clostridium botulinum, UniProt P0DPI0)

SMILES	tested on	test	test system	conditions	quantity	result
CC[C@H](C)[C@@H]1NC(=O)[C@@H]2CSSC[C@H](NC(=O)[C@H](CCCNC(=N)N)NC(=O)[C@@H]3CSSC[C@H](NC1=O)C(=O)N[C@@H]([C@@H](C)O)C(=O)N[C@@H](CCCNC(=N)N)C(=O)NCC(=O)N[C@@H](Cc1ccccc1)C(=O)N3)C(=O)N1CCC[C@H]1C(=O)N[C@H]1CSSC[C@H](NC(=O)CNC(=O)[C@H](Cc3ccc(O)cc3)NC(=O)[C@H](CCCNC(=N)N)NC(=O)[C@H](CO)NC1=O)C(=O)N[C@@H](Cc1c[nH]c3ccccc13)C(=O)N2	Lethal factor				Ki	946 ± 58 nM
CC(C)C[C@H](NC(=O)[C@H](CO[C@@H]1O[C@H](CO)[C@@H](O)[C@H](O)[C@H]1O)NC(=O)[C@H](CCCCN)NC(=O)[C@H](CC(C)C)NC(=O)C(C)(C)NC(=O)[C@H](CCCCN)NC(=O)[C@H](CCC(=O)O)NC(=O)C(C)(C)NC(=O)[C@H](CC(C)C)NC(=O)[C@H](CC(N)=O)NC(=O)[C@@H]1CCCN1C(=O)[C@H](CC(C)C)NC(=O)[C@H](Cc1ccccc1)NC(=O)CNC(=O)[C@H](NC(=O)[C@@H](N)Cc1ccc(O)cc1)[C@H](C)O)C(N)=O	OPRD1	ligand displacement, radioligand		pH 7.5, cell membranes	Ki	11 nM
O=C(NCCOC(=O)[C@@H]1CCCCN1S(=O)(=O)Cc1ccccc1)c1cccnc1	Peptidyl-prolyl cis-trans isomerase (Burkholderia pseudomallei, UniProt Q63J95)	enzyme activity, inhibitor			Ki	290 nM
CCOC(=O)C1C(OC(c2ccc(Cl)cc2)c2ccc(Cl)cc2)CC2CCC1N2C (single isomer, unassigned)	rat sodium channel site 2	radioligand binding		together with: [3H]batrachotoxin benzoate	Ki	934 ± 17 nM
CC[C@H](C)[C@@H]1NC(=O)[C@H](CC(=O)O)NC(=O)[C@H]([C@@H](C)O)NC(=O)[C@@H]2CSSC[C@@H]3NC(=O)[C@H](CC(C)C)NC(=O)[C@H](CC(N)=O)NC(=O)[C@H](CC(C)C)NC(=O)[C@H](CCCNC(=N)N)NC(=O)[C@H](Cc4ccc(O)cc4)NC(=O)[C@H](CC(N)=O)NC(=O)[C@H](CCSC)NC(=O)[C@H](CO)NC(=O)[C@H]([C@@H](C)O)NC(=O)[C@H](CCCNC(=N)N)NC(=O)[C@H](CSSC[C@H](NC(=O)[C@H]([C@@H](C)O)NC(=O)[C@H](CCCCN)NC(=O)[C@H](CCCNC(=N)N)NC3=O)C(=O)NCC(=O)N[C@@H](CO)C(=O)N[C@H](C(=O)O)CSSC[C@H](NC(=O)[C@@H](NC(=O)[C@@H](N)CCCNC(=N)N)[C@@H](C)O)C(=O)N[C@@H](CCCCN)C(=O)N[C@@H](CC(=O)O)C(=O)N[C@@H](CC(C)C)C(=O)N[C@@H]([C@@H](C)CC)C(=O)N3CCC[C@H]3C(=O)N[C@@H](C(C)C)C(=O)N[C@@H](CO)C(=O)N[C@@H](CCC(=O)O)C(=O)N2)NC(=O)[C@H](CCCNC(=N)N)NC1=O	KcsA-Shaker channel	potassium current, inhibitor, two-electrode voltage clamp	Xenopus oocytes		Ki	225 ± 37 nM
CCCCCc1ccc(Oc2ccccc2)c(O)c1	Enoyl-[acyl-carrier-protein] reductase [NADH] (Francisella tularensis subsp. tularensis, UniProt Q5NGQ3)	inhibitor		second step, K2	Ki	525 ± 8 nM
Nc1nc2c(ncn2C2OC(COP(=O)(O)OP(=O)(O)O)C(O)C2O)c(=O)[nH]1 (centres unmarked)	OPG122				Ki	680 nM
Cc1ccc(OCCN(C)C)cc1C(=O)N[C@H](C)c1cc(-c2cnn(C)c2)cc(-c2ccn(C)n2)c1	rep papain-like protease	enzyme activity, inhibitor, FRET			Ki	47.1 nM
CSCC[C@H](NC(=O)[C@H](CCCCN)NC(=O)[C@@H](NC(=O)[C@H](C)NC(=O)[C@H](CCCNC(=N)N)NC(=O)CCc1ccccc1)[C@@H](C)O)C(=O)N[C@@H](CC(C)C)C(N)=O	Botulinum neurotoxin type A protease	enzyme activity, inhibitor			Ki	> 200000 nM
Nc1nc2c(ncn2C2OC(COP(=O)(O)OP(=O)(O)OP(=O)(O)O)C(O)C2O)c(=O)[nH]1 (centres unmarked)	OPG122				Ki	90 nM
Cc1ccc(OCCN(C)C)cc1C(=O)N[C@H](C)c1cc(-c2cnn(C)c2)cc(-c2cnn(CCN3CCOCC3)c2)c1	rep papain-like protease	enzyme activity, inhibitor, FRET			Ki	29.3 nM
Cn1cnc2c(ncn2C2OC(COP(=O)(O)OP(=O)(O)OP(=O)(O)O)C(O)C2O)c1=N (centres unmarked)	OPG122				Ki	700 nM
CSCC[C@H](NC(=O)[C@H](CCCCN)NC(=O)[C@@H](NC(=O)[C@H](C)NC(=O)[C@H](CCCNC(=N)N)NC(=O)[C@@H](N)CCC(N)=O)[C@@H](C)O)C(=O)N[C@@H](CC(C)C)C(N)=O	Botulinum neurotoxin type A protease	enzyme activity, inhibitor			Ki	6500 nM
CSc1nc(N)nc2c1ncn2C1OC(COP(=O)(O)OP(=O)(O)OP(=O)(O)O)C(O)C1O (centres unmarked)	OPG122				Ki	> 800 nM
CCCCCCCCCCCCCCCC(=O)N[C@@H](CCC(=O)NCCOCCOCCC(=O)NCCOCCOCCC(=O)NCCCC[C@H](NC(=O)[C@H](CC(=O)O)NC(=O)[C@H](CC(C)C)NC(=O)[C@H](Cc1ccc(O)cc1)NC(=O)[C@H](CCCCN)NC(=O)[C@H](CO)NC(=O)[C@H](Cc1ccc(O)cc1)NC(=O)[C@H](CC(=O)O)NC(=O)[C@H](CO)NC(=O)[C@@H](NC(=O)[C@H](Cc1ccccc1)NC(=O)[C@@H](NC(=O)CNC(=O)[C@H](CCC(N)=O)NC(=O)[C@@H](CO)NC(=O)[C@@H](N)Cc1c[nH]cn1)[C@@H](C)O)[C@@H](C)O)C(=O)N[C@@H](CCCNC(=N)N)C(=O)N[C@@H](CCCNC(=N)N)C(=O)N[C@@H](C)C(=O)N[C@@H](CCC(N)=O)C(=O)N[C@@H](CC(=O)O)C(=O)N[C@@H](Cc1ccccc1)C(=O)N[C@H](C(=O)N[C@@H](CCC(N)=O)C(=O)N[C@@H](Cc1c[nH]c2ccccc12)C(=O)N[C@@H](CC(C)C)C(=O)N[C@@H](CC(C)C)C(=O)N[C@@H](CC(N)=O)C(=O)N[C@H](C(=O)NCC(=O)NCC(=O)N1CCC[C@H]1C(=O)N[C@@H](CO)C(=O)N[C@@H](CO)C(=O)NCC(=O)N[C@@H](C)C(=O)N1CCC[C@H]1C(=O)N1CCC[C@H]1C(=O)N1CCC[C@H]1C(=O)N[C@@H](CO)C(N)=O)[C@@H](C)O)C(C)C)C(=O)O		item: CK	Sprague-Dawley rat, male	subcutaneous, 100 µg/kg once daily, 14 days	serum enzyme activity	492 ± 108 U/L
Nc1nc2c(ncn2C2CC(O)C(COP(=O)(O)OP(=O)(O)OP(=O)(O)O)O2)c(=O)[nH]1 (centres unmarked)	OPG122				Ki	110 nM
CCC(Br)C(=O)NNC(=O)c1ccccc1NC(=O)C(Br)CC (centres unmarked)	Replicase polyprotein 1ab, main protease (rep, Severe acute respiratory syndrome-related coronavirus, UniProt P0C6X7)	enzyme activity, inhibitor			Ki	23000 nM
NC1=NN=Cc2ccccc2[O][V](=[O])[O]1.c1cnc2c(c1)ccc1cccnc12	Tyrosine-protein phosphatase YopH (Yersinia enterocolitica, UniProt P15273)	enzyme activity, inhibitor			Ki	20 nM
O=C(N[C@@H](Cc1ccccc1)C(=O)CCl)OCc1ccccc1	Replicase polyprotein 1ab, main protease (rep, Severe acute respiratory syndrome-related coronavirus, UniProt P0C6X7)	enzyme activity, inhibitor			Ki	306 nM
CC[C@H](C)[C@H](NC(=O)[C@H](CCCCN)NC(=O)[C@H](CCCCN)NC(=O)[C@H](CC(C)C)NC(=O)[C@H](Cc1c[nH]c2ccccc12)NC(=O)CN)C(=O)NCC(=O)N[C@@H](CCCCN)C(=O)N[C@@H](CCCCN)C(=O)N[C@H](C(=O)N[C@@H](CCC(=O)O)C(=O)N[C@@H](CCCNC(=N)N)C(=O)N[C@H](C(=O)NCC(=O)N[C@@H](CCC(N)=O)C(=O)N[C@@H](Cc1c[nH]cn1)C(=O)N[C@H](C(=O)N[C@@H](CCCNC(=N)N)C(=O)N[C@@H](CC(=O)O)C(=O)N[C@@H](C)C(=O)N[C@H](C(=O)N[C@H](C(=O)N[C@@H](CCC(N)=O)C(=O)N[C@H](C(=O)N[C@H](C(=O)NCC(=O)N[C@H](C(=O)N[C@@H](C)C(=O)N[C@@H](CCC(N)=O)C(=O)N[C@@H](CCC(N)=O)C(=O)N[C@@H](C)C(=O)N[C@@H](C)C(=O)N[C@@H](CC(N)=O)C(=O)N[C@H](C(=O)N[C@@H](C)C(=O)N[C@@H](C)C(=O)N[C@H](C(=O)N[C@@H](CC(C)C)C(=O)N[C@@H](CCCCN)C(N)=O)[C@@H](C)O)C(C)C)C(C)C)[C@@H](C)CC)[C@@H](C)O)[C@@H](C)CC)[C@@H](C)O)[C@@H](C)O)C(C)C)[C@@H](C)CC	Klebsiella pneumoniae	broth microdilution	RKI 93/10, CAMHB with 10% mouse serum	150 mM NaCl	MIC	1 µg/mL (≈ 0.238 µM)
CSCC[C@H](NC(=O)[C@H](CCCCN)NC(=O)[C@@H](NC(=O)[C@H](C)NC(=O)[C@H](CCCNC(=N)N)NC(=O)CN)[C@@H](C)O)C(=O)N[C@@H](CC(C)C)C(N)=O	Botulinum neurotoxin type A protease	enzyme activity, inhibitor			Ki	3300 nM
Cc1ccc(OCCN(C)C)cc1C(=O)N[C@H](C)c1cc(-c2cnn(C)c2)cc(-c2cnn(C)c2)c1	rep papain-like protease	enzyme activity, inhibitor, FRET			Ki	34.3 nM
Nc1nc2c(nc(I)n2C2OC(COP(=O)(O)OP(=O)(O)OP(=O)(O)O)C(O)C2O)c(=O)[nH]1 (centres unmarked)	OPG122				Ki	> 800 nM
CSCC[C@@H](C=O)NC(=O)[C@H](CC(C)C)NC(=O)[C@H](CC(C)C)NC(C)=O	Replicase polyprotein 1ab, main protease (rep, Middle East respiratory syndrome-related coronavirus, UniProt K9N7C7)	enzyme activity, inhibitor			Ki	130 nM
CNc1ncnc2c1ncn2C1OC(COP(=O)(O)OP(=O)(O)OP(=O)(O)O)C(O)C1O (centres unmarked)	OPG122				Ki	> 800 nM
CC(C)C[C@H](NC(=O)[C@@H](NC(=O)[C@@H](CCCNC(=N)N)NC(=O)[C@@H](CCCNC(=N)N)NC(=O)[C@@H](CCCNC(=N)N)NC(=O)[C@@H](CCCNC(=N)N)NC(=O)[C@@H](CCCNC(=N)N)NC(=O)[C@@H](CCCNC(=N)N)NC(=O)[C@@H](CCCNC(=N)N)NC(=O)[C@@H](CCCNC(=N)N)NC(=O)[C@H](N)CCCNC(=N)N)C(C)C)C(=O)N[C@@H](CCCNC(=N)N)C(=O)NO	Lethal factor	enzyme activity, inhibitor			Ki	1.45 nM
CC(C)C[C@H](NC(=O)[C@H](CO[C@@H]1O[C@H](CO)[C@@H](O[C@@H]2O[C@H](CO)[C@H](O)[C@H](O)[C@H]2O)[C@H](O)[C@H]1O)NC(=O)[C@H](CCCCN)NC(=O)[C@H](CC(C)C)NC(=O)C(C)(C)NC(=O)[C@H](CCCCN)NC(=O)[C@H](CCC(=O)O)NC(=O)[C@H](C)NC(=O)[C@H](CC(C)C)NC(=O)[C@H](CC(N)=O)NC(=O)[C@@H]1CCCN1C(=O)[C@H](CC(C)C)NC(=O)[C@H](Cc1ccccc1)NC(=O)CNC(=O)[C@H](NC(=O)[C@@H](N)Cc1ccc(O)cc1)[C@H](C)O)C(N)=O	OPRD1	ligand displacement, radioligand		pH 7.5, cell membranes	Ki	12 nM
CSCC[C@H](NC(=O)[C@H](CCCCN)NC(=O)[C@@H](NC(=O)[C@H](C)NC(=O)[C@H](CCCNC(=N)N)NC(=O)[C@@H](N)Cc1ccccc1)[C@@H](C)O)C(=O)N[C@@H](CC(C)C)C(N)=O	Botulinum neurotoxin type A protease	enzyme activity, inhibitor			Ki	8300 nM
Nc1ncnc2c1ncn2C1CCC(COP(=O)(O)OP(=O)(O)OP(=O)(O)O)O1 (centres unmarked)	OPG122				Ki	660 nM

Some of these lines once more:
SMILES	tested on	test	test system	conditions	quantity	result
CCCCCc1ccc(Oc2ccccc2)c(O)c1	Enoyl-[acyl-carrier-protein] reductase [NADH] (Francisella tularensis subsp. tularensis, UniProt Q5NGQ3)	inhibitor		second step, K2	Ki	525 ± 8 nM
Nc1nc2c(ncn2C2OC(COP(=O)(O)OP(=O)(O)O)C(O)C2O)c(=O)[nH]1 (centres unmarked)	OPG122				Ki	680 nM
Cc1ccc(OCCN(C)C)cc1C(=O)N[C@H](C)c1cc(-c2cnn(C)c2)cc(-c2ccn(C)n2)c1	rep papain-like protease	enzyme activity, inhibitor, FRET			Ki	47.1 nM
CSCC[C@H](NC(=O)[C@H](CCCCN)NC(=O)[C@@H](NC(=O)[C@H](C)NC(=O)[C@H](CCCNC(=N)N)NC(=O)CCc1ccccc1)[C@@H](C)O)C(=O)N[C@@H](CC(C)C)C(N)=O	Botulinum neurotoxin type A protease	enzyme activity, inhibitor			Ki	> 200000 nM
